# Assay results gathered from unrelated publications.
# Protocols differ between the studies behind these lines. “And” joins repeats or separate records; there may be more than shown. ± marks the error that the study gave.
SMILES,assay,system,setting,how to read,quantity,value
O=C(NC1CCOCC1)c1ccc(C2CCCCC2)cc1,liver microsome stability,dog liver microsomes,1 µM,,hepatic clearance,29 mL/min/kg
Cc1cc(F)ccc1-c1cc(N2C[C@H]3COC(O)CN3C[C@H]2CO)ncc1N(C)C(=O)C(C)(C)c1cc(C(F)(F)F)cc(C(F)(F)F)c1 (some centres unmarked),,healthy male human,"oral, 120 mg, up to 480 h cumulative",baseline: dose,amount excreted in faeces,1.39%
CC(C)OC(=O)[C@H](CO)NCc1cc(Cl)c(OCc2cccc(-c3ccccc3)c2Br)cc1OCc1cccnc1,,"hPD-L1 MC-38 tumour, humanised hPD-1 C57BL/6 mouse","oral, 2.5 mg/kg × 21, day 21",,body weight,21.8 ± 1.1 g
CCCCN1C(=O)c2cccc3c(NCCCN4CCOCC4)ccc(c23)C1=O,,DMF,,,fluorescence lifetime,6.2 ns
CC(C)C[C@H](NC(=O)[C@H](CO)NC(=O)[C@H](CCC(=O)O)NC(=O)CNC(=O)[C@H](C)NC(=O)OCc1ccccc1)C(=O)N[C@@H](Cc1ccc(O)cc1)C(=O)N[C@@H](CCC(=O)O)C(N)=O,metabolic stability,"human, plasma",30 min,,compound remaining,85.3%
CC(C)=CCc1cc(C(=O)/C=C/c2ccc(O)cc2)c(O)cc1O,phase I metabolism,rat liver microsomes,,,CLint,13.3 µL/min/mg
COc1ccc2c(c1)CN(C(=O)CCN1CCC(Cc3ccccc3)CC1)CCS2,,human plasma,750 ng/mL,,fu,0.024
CC(C)CC(=O)Nc1ccc([C@H]2[C@@H](F)[C@@H](F)C[C@@H](F)[C@H]2F)cc1,liver microsome stability,cynomolgus liver microsomes,1 µM,,hepatic clearance,4.9 mL/min/kg
O=C(NC1CCC(F)(F)CC1)C(c1cncnc1)N(C(=O)C(F)Cl)c1ccc(OC(F)(F)F)cc1 (centres unmarked),,mouse liver microsomes,"concentration not given, pH 7.4",,CLint,< 9.6 µL/min/mg
O=C(NS(=O)(=O)c1cccs1)c1cc2ccccc2n1Cc1ccc(Br)c2ccccc12,,"KM mouse, chronic hyperuricaemia model","dose not given, day 14",,body weight,34.5 g and 31.1 g and 33.6 g and 36.1 g and 31 g
CCC1CNC(CC)CN(C(C(=O)[O-])c2ccc(C(=O)[O-])cc2)C(CC)CN(CC(=O)[O-])C(CC)CN1.[Mn+2] (centres unmarked),ICP-MS,"BALB/c mouse, intestine","intravenous, 0.05 mmol/kg, 5 min, without anaesthesia",,Mn content,19.7 ± 3.81 µg/g
CNC(=O)c1ccc([C@H]2[C@@H](F)[C@@H](F)C[C@@H](F)[C@H]2F)cc1,liver microsome stability,rat liver microsomes,1 µM,,hepatic clearance,6.9 mL/min/kg
O=C(O)c1ccc(/C=C2\SC(=S)N(Cc3cccc(C(F)(F)F)c3)C2=O)cc1,,human liver microsomes,1 µM,,hepatic clearance,< 4.7 mL/min/kg
F[C@@H]1[C@H](c2ccc(-c3ccc(N4CCCC4)nc3)cc2)[C@H](F)[C@H](F)C[C@@H]1F,liver microsome stability,human liver microsomes,"1 µM, without NADPH",,hepatic clearance,8.5 mL/min/kg
COC1C=COC2(C)Oc3c(C)c(O)c4c(c3C2=O)C2=NC3(CCN(CC(C)C)CC3)NC2=C(NC(=O)C(C)=CC=CC(C)C(O)C(C)C(O)C(C)C(OC(=O)Nc2cccnn2)C1C)C4=O (centres unmarked),,"CD-1 mouse female, plasma","oral, 10 mg/kg",,fAUC/MIC ratio,63.5
O=C(CC1CCOCC1)Nc1ccc([C@H]2[C@@H](F)[C@@H](F)C[C@@H](F)[C@H]2F)cc1,liver microsome stability,rat liver microsomes,1 µM,,hepatic clearance,23 mL/min/kg
COc1cccc(OC)c1-c1cc(C(=O)NC2(C(=O)O)C3CC4CC(C3)CC2C4)nn1-c1ccc(C(=O)N(C)CCOCCN(C)C(=O)[C@H](CCCCNC(=O)[C@H](CC(C)C)NC(=O)C2OC2C(=O)O)NC(=O)CN2CCN(CC(=O)[O-])CCN(CC(=O)[O-])CCN(CC(=O)[O-])CC2)cc1C(C)C.[177Lu+3] (mixture of isomers),,"mouse, HT-29 xenograft, spleen",4 h post injection,,tissue uptake,0.81 %ID/g
